# Experimental data gathered from unrelated publications.
# Lines come from different studies, so protocols differ. Numbers after ± are the reported error.
# UniProt Q86SP6, sequence (whole entry, looked up): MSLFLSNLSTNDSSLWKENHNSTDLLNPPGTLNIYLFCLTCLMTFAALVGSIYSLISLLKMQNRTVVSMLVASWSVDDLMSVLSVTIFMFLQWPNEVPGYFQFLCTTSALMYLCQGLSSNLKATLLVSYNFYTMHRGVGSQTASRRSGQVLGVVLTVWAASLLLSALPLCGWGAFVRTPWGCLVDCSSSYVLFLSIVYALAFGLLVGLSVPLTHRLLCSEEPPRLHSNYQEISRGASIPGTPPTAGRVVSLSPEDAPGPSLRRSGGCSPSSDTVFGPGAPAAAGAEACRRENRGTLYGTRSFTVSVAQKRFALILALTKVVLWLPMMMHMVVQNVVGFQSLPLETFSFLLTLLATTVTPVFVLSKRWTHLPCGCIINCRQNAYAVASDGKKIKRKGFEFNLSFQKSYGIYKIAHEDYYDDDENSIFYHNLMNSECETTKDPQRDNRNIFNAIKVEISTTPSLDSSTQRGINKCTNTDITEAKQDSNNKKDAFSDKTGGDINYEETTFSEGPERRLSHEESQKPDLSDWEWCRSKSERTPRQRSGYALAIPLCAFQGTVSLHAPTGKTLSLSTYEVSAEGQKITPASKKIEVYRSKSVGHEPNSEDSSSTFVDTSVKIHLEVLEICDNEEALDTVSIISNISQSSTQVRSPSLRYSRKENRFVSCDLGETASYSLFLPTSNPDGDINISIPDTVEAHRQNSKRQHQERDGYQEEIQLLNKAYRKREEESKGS
# UniProt P51787, sequence (whole entry, looked up): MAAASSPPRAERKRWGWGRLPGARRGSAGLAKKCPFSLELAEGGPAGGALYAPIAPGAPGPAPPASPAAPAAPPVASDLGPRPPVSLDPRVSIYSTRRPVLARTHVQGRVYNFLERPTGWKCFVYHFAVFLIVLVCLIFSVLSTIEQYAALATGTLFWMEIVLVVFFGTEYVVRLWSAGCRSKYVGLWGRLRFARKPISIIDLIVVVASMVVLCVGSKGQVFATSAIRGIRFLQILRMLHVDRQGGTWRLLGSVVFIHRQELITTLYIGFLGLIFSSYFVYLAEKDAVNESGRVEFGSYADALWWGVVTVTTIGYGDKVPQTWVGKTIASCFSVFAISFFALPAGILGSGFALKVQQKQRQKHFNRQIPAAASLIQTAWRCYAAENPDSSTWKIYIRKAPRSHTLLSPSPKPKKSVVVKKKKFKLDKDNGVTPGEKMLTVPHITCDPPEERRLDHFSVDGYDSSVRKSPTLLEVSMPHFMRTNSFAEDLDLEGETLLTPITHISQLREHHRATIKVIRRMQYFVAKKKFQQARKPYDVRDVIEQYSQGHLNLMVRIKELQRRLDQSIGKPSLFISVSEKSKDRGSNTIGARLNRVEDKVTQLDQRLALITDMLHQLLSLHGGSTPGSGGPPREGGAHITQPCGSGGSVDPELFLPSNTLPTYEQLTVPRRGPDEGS
# UniProt Q08499, sequence (whole entry, unmodified, looked up): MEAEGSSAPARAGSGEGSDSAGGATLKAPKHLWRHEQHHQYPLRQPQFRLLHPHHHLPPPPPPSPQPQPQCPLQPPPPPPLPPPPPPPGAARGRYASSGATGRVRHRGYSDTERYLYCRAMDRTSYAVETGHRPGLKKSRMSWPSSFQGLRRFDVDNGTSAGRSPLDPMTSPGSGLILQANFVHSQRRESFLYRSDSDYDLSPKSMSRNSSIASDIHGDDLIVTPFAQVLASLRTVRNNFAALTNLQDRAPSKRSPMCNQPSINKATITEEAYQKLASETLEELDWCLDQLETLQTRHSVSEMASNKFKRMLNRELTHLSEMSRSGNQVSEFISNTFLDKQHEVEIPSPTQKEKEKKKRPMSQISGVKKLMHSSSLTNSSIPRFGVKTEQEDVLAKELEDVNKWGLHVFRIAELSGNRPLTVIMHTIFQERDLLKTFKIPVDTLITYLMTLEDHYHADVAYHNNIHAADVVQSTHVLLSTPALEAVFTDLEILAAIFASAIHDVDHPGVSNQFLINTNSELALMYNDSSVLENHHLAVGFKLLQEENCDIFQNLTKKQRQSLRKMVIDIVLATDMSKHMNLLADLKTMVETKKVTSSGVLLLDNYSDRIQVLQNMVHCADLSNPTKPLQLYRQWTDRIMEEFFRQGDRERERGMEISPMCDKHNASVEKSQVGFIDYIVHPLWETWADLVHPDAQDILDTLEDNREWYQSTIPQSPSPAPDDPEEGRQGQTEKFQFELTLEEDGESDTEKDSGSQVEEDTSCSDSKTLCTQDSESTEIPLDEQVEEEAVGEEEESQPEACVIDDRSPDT
Structure (SMILES),target or system,assay,system,setting,how to read,quantity,result
NC(=O)CCNC(=O)c1ccc(C2CCCCC2)cc1,,hepatocyte stability,cryopreserved mouse hepatocytes,1 µM,,hepatic clearance,77 mL/min/kg
CC[C@H](C)[C@@H]1NC(=O)[C@H](CCCNC(=N)N)NC(=O)[C@@H]2CCCN2C(=O)[C@H](Cc2ccccc2)NC(=O)[C@H]([C@@H](C)O)NC(=O)CNC(=O)[C@H](CC(C)C)NC(=O)[C@@H]2CCCN2C(=O)[C@H]([C@@H](C)O)NC(=O)[C@H](Cc2c[nH]c3ccccc23)NC(=O)[C@H](Cc2ccc(O)cc2)NC(=O)[C@H]([C@@H](C)CC)NC(=O)[C@H]([C@@H](C)O)NC(=O)[C@H]([C@@H](C)O)NC(=O)[C@@H](Cc2ccc(O)cc2)NC(=O)CSC[C@@H](C(N)=O)NC(=O)[C@H](CCCNC(=N)N)NC1=O,"Vacuolar protein sorting-associated protein 29 (VPS29, Homo sapiens, UniProt Q9UBQ0)","binding, ITC",,"25 °C, protein alone",,ΔH,-11.6 ± 0.1 kcal/mol
CCCCCCCCCCCCCCCC(=O)SCCNC(=O)CCNC(=O)[C@H](O)C(C)(C)COP(=O)(O)OP(=O)(O)OC[C@H]1O[C@@H](n2cnc3c(N)ncnc32)[C@H](O)[C@@H]1OP(=O)(O)O,"GPAT (Gat1 and Gat2), yeast",substrate,"Saccharomyces cerevisiae, BY4741 wild type, total membranes",with: [3H]glycerol-3-phosphate,,Km,72.3 ± 21.5 µM
C[C@@H]1CCN(C(=O)CCl)[C@@H](C(N)=O)C1,human NEDD9 full length,"LC-MS peptide mapping, refers to: Cys18",,"50 µM, 1 h",,cysteine occupancy,8.5%
COc1cc(C[C@H]2C(=O)OC[C@@H]2Cc2ccc(OC)c(OC)c2)ccc1O,"PDE4D (Homo sapiens, UniProt Q08499)",isothermal titration calorimetry,,,,-TΔS,4.72 ± 1.68 kJ/mol
c1ccc(C(NCc2cccnc2)(c2ccccc2)c2ccccc2)cc1,"Potassium voltage-gated channel subfamily KQT member 1, with KCNE1 (KCNQ1, Homo sapiens, UniProt P51787)",IKs,,"100 pM, above +50 mV, with KCNE1",,slope of normalized current vs voltage,2.9 V⁻¹
CC[C@H](C)[C@H](NC(=O)[C@H](Cc1ccccc1)NC(=O)[C@H](CCC(=O)O)NC(=O)[C@H](CCCNC(=N)N)NC(=O)[C@H](C)NC(=O)[C@H](C)NC(=O)[C@H](CCC(N)=O)NC(=O)[C@H](CCC(=O)O)NC(=O)[C@H](CCC(=O)O)NC(=O)[C@H](CC(C)C)NC(=O)[C@H](Cc1ccc(O)cc1)NC(=O)[C@H](CO)NC(=O)[C@H](CO)NC(=O)[C@@H](NC(=O)[C@H](CC(=O)O)NC(=O)[C@H](CO)NC(=O)[C@@H](NC(=O)[C@H](Cc1ccccc1)NC(=O)[C@@H](NC(=O)CNC(=O)[C@H](CCC(=O)O)NC(=O)[C@H](C)NC(=O)CCc1cnc[nH]1)[C@@H](C)O)[C@@H](C)O)C(C)C)C(=O)N[C@@H](C)C(=O)N[C@@H](Cc1c[nH]c2ccccc12)C(=O)N[C@@H](CC(C)C)C(=O)N[C@H](C(=O)N[C@@H](CCCCNc1c(NCCCCCN(O)C(=O)CCC(=O)NCCCCCN(O)C(=O)CCC(=O)NCCCCCN(O)C(C)=O)c(=O)c1=O)C(=O)NCC(=O)N[C@@H](CCCNC(=N)N)C(=O)N[C@@H](CCCCNC(=O)COCCOCCNC(=O)COCCOCCNC(=O)CC[C@H](NC(=O)CCCCCCCCCCCCCCCCC(=O)O)C(=O)O)C(=O)NCC(=O)NCC(=O)N[C@@H](CO)C(=O)N[C@@H](CCCCNc1c(NCCCCCN(O)C(=O)CCC(=O)NCCCCCN(O)C(=O)CCC(=O)NCCCCCN(O)C(C)=O)c(=O)c1=O)C(=O)O)C(C)C,"GLP1R (Homo sapiens, UniProt P43220)","agonist, CRE luciferase reporter",BHK cells,"metal-free DFO conjugate, with: 0% HSA",baseline: parent peptide,fold potency loss,14.2
Oc1ccc(/C=C/c2cc(O)cc(O)c2)cc1,"O-methyltransferase (Sorghum bicolor, UniProt A0A1B6PFV1)",isothermal titration calorimetry,,"concentration not given, apo protein",,ΔG of binding,-7.68 kcal/mol
CN1CCN(c2ccc3nc(-c4c(N)c5c(F)cccc5[nH]c4=O)[nH]c3c2)CC1,NanoBiT HiBiT/LgBiT luciferase,"inhibitor, HiBiT luminescence counterscreen",conditioned medium only,"1.66 µM, 24 h",baseline: vehicle,luminescence signal reduction,1.94%
COc1cc(Nc2ncc3c(n2)-c2ccc(Cl)cc2C(c2c(F)cccc2OC)=NC3)ccc1C(=O)O,MET M1250T,"inhibitor, biochemical kinase",,1 µM,,remaining activity,104%
CCN1CCC[C@H]1CNC(=O)c1c(O)c(Cl)cc(Cl)c1OC,"Probable G-protein coupled receptor 149 (GPR149, Homo sapiens, UniProt Q86SP6)","β-arrestin recruitment, TANGO luminescence, refers to: GPR149",,concentration not given,baseline: basal luminescence,log2 fold change,0.303
NS(=O)(=O)c1cccc(-c2ccc(C3CCCCC3)cc2)c1,,liver microsome stability,human liver microsomes,"1 µM, without NADPH",,hepatic clearance,3.9 mL/min/kg
CCN1/C(=C/C(C)=O)Sc2ccc(F)cc21,,,cynomolgus monkey,"oral, 10 mg/kg, 6 h post-dose",baseline: pre-dose,PR interval change,103 ± 6.6%
